Assay results collected from several papers.
Each line is one published result; not all experiments were run side by side. ± marks the error that the study gave.

For O=C([O-])CN1CCN(CC(=O)[O-])CCN(CC(=O)NCCc2ccc3c(c2)C2C=CCC2C(c2cc4c(cc2Br)OCO4)N3)CCN(CC(=O)[O-])CC1.[111In+3] (centres unmarked), the tissue uptake was 5.05 ± 1.75 %ID/g (mouse, Hec50 endometrial tumour, stomach; 1 h post injection).
CN(C)c1ccc(-c2nc3ccc(OCCCCCN4CCN5CCN(CC4)CC(=O)[O][Al]([18F])[O]C(=O)C5)cc3s2)cc1 has a tissue uptake of 4.96 ± 0.38 %ID/g (ICR mouse, pancreas; intravenous, 2 min).
With CCCC[C@H](NC(=O)CNC(=O)CNC(=O)CN1CCN(CC(=O)O)CCN(CC(=O)O)CC1)C(=O)N[C@H]1CC(=O)NCCCC[C@@H](C(N)=O)NC(=O)[C@H](Cc2c[nH]c3ccccc23)NC(=O)[C@H](CCCNC(=N)N)NC(=O)[C@@H](Cc2ccccc2)NC(=O)[C@H](Cc2c[nH]cn2)NC1=O [copper-64 labelled] the tissue uptake was 0.56 ± 0.09 %ID/g (female C57 mouse, B16/F1 melanoma, lung; intravenous, 0.037 MBq, 2 h).
CCCC[C@H](NC(=O)CNC(=O)CNC(=O)CN1CCN(CC(=O)O)CCN(CC(=O)O)CCN(CC(=O)O)CC1)C(=O)N[C@H]1CC(=O)NCCCC[C@@H](C(N)=O)NC(=O)[C@H](Cc2c[nH]c3ccccc23)NC(=O)[C@H](CCCNC(=N)N)NC(=O)[C@@H](Cc2ccccc2)NC(=O)[C@H](Cc2c[nH]cn2)NC1=O [lead-203 labelled] gave a tissue uptake of 0.28 ± 0.15 %ID/g (C57 mouse, lung; intravenous, 0.056 MBq, 4 h).
With CC(C)[C@H](NC(=O)[C@@H]1CCCN1C(=O)[C@H](CCCNC(=N)N)NC(=O)[C@H](CS)NC(=O)[C@H](Cc1c[nH]c2ccccc12)NC(=O)[C@H](CCCNC(=N)N)NC(=O)[C@@H](Cc1ccccc1)NC(=O)[C@H](Cc1c[nH]cn1)NC(=O)[C@H](CCC(=O)O)NC(=O)[C@H](CS)NC(=O)[C@H](CS)NC(=O)[C@@H]1CC(=O)N[C@@H](CCCNC(=N)N)C(=O)NCC(=O)N[C@@H](CC(=O)O)C(=O)N[C@H](Cc2ccc(O)cc2)C(=O)N1)C(N)=O [technetium-99m labelled] the tissue uptake was 0.08 ± 0.07 %ID/g (C57 mouse, female, B16/F1 melanoma, blood; intravenous, 0.037 MBq, 24 h).
CN1C(=O)[C@@H](Cc2ccc(O)c(I)c2)NC(=O)CNC(=O)[C@H](Cc2ccc3ccccc3c2)NC(=O)[C@H](CCCNC(=N)N)NC(=O)[C@H]1CCCNC(=O)c1ccc(CNC(=O)CN2CCN(CC(=O)O)CCN(CC(=O)O)CCN(CC(=O)O)CC2)cc1 [lutetium-177 labelled] has a tissue uptake of 0.1 ± 0.002 %ID/g (female CB-17 SCID mouse, Daudi xenograft, pancreas; intravenous, 6 h, CXCR4 blocking, together with: AMD3100 2 mg/kg coinjected).
CCCC[C@H](NC(=O)CNC(=O)CNC(=O)CN1CCN(CC(=O)O)CCN(CC(=O)O)CCN(CC(=O)O)CC1)C(=O)N[C@H]1CC(=O)NCCCC[C@@H](C(N)=O)NC(=O)[C@H](Cc2c[nH]c3ccccc23)NC(=O)[C@H](CCCNC(=N)N)NC(=O)[C@@H](Cc2ccccc2)NC(=O)[C@H](Cc2c[nH]cn2)NC1=O [copper-64 labelled] has a tissue uptake of 9.3 ± 2.81 %ID/g (female C57 mouse, B16/F1 melanoma, kidneys; intravenous, 0.037 MBq, 2 h).
CC(C)[C@H](NC(=O)[C@@H]1CCCN1C(=O)[C@H](CCCNC(=N)N)NC(=O)[C@H](CS)NC(=O)[C@H](Cc1c[nH]c2ccccc12)NC(=O)[C@H](CCCNC(=N)N)NC(=O)[C@@H](Cc1ccccc1)NC(=O)[C@H](Cc1c[nH]cn1)NC(=O)[C@H](CCC(=O)O)NC(=O)[C@H](CS)NC(=O)[C@H](CS)NC(=O)CNC(=O)[C@@H]1CC(=O)N[C@@H](CCCNC(=N)N)C(=O)NCC(=O)N[C@@H](CC(=O)O)C(=O)N[C@H](Cc2ccc(O)cc2)C(=O)N1)C(N)=O [technetium-99m labelled] has a tissue uptake of 0.33 ± 0.11 %ID/g (C57 mouse, female, B16/F1 melanoma, pancreas; intravenous, 0.037 MBq, 2 h).

Excerpt of the above:
For O=C([O-])CN1CCN(CC(=O)[O-])CCN(CC(=O)NCCc2ccc3c(c2)C2C=CCC2C(c2cc4c(cc2Br)OCO4)N3)CCN(CC(=O)[O-])CC1.[111In+3] (centres unmarked), the tissue uptake was 5.05 ± 1.75 %ID/g (mouse, Hec50 endometrial tumour, stomach; 1 h post injection).
